Experimental data pooled from the literature.
“And” joins repeats or separate records; there may be more than shown. ± gives the spread as reported. Values after ≈ are worked out from the molar mass of the structure shown.

`O=C(Nc1nc2cccc(-c3ccc(CN4CCS(=O)(=O)CC4)cc3)n2n1)C1CC1` — result for “treatment-emergent adverse events”: 0% (item: pharyngitis; human rheumatoid arthritis patients; oral, 200 mg once daily, 4 weeks, regardless of relatedness).
With `Cn1cnc2c(F)c(Nc3ccc(Br)cc3Cl)c(C(=O)NOCCO)cc21` the relative bioavailability was 0.74 (population PK model; human, plasma; oral, first-order absorption model; baseline: fed over fasted).
For `O=C(Cc1ccc2ccccc2c1)Nc1cc(C2CCC2)[nH]n1`, “measured mean concentration” read 374 ± 10 ng/mL (mouse plasma; 375 ng/mL, 40 days, -80 °C, long-term storage stability).
With `CNCc1ccc(-c2[nH]c3cc(F)cc4c3c2CCNC4=O)cc1` the cough incidence was 0% (patients; oral, 600 mg twice daily, grade 4).
The body weight of `COc1ccc(CNc2nc(-c3ccc(C(=O)O)cc3)nc3c2c2ccccc2n3C)cc1Cl` is reported as 21.8 g and 22.5 g and 21.1 g and 24 g (NSG mice; dose not given, day 5 of treatment).
`CC(C)[C@H](C(=O)Nc1ccc(C(=O)NO)cc1)c1ccccc1` has a measured concentration of 107 ng/mL (whole blood; 100 ng/mL, 0 h, 4 °C, stability on ice).
`CCc1cc(C(=O)NC)c2nccc(N3CCc4c(cc(Cn5ccnc5)cc4-c4cn(C)nc4C(F)(F)F)C3=O)c2c1`: “mean corpuscular volume” 68.1 ± 2.64 fL (Sprague Dawley rats; oral, 50 mg/kg once daily, 7 days).
`CC(C)n1c(Nc2cccnc2)nc2cnc(Nc3ccc(N4CCN(C)CC4)cc3)nc21` — result for “subjects with adverse event”: 57.1% (item: at least one TEAE; healthy male subjects; oral, 150 mg, study, added: rifampin).
`FC(F)(F)c1ccc(CNc2ccc(Cc3c[nH]c4ncc(Cl)cc34)cn2)cn1`: “adverse event incidence” 44% (item: Fatigue; patients with advanced solid tumours; oral, dose not given, grade 1 and 2, possibly related to drug).
`CC[C@H](C)C(=O)O[C@H]1C[C@@H](C)C=C2C=C[C@H](C)[C@H](CC[C@@H]3C[C@@H](O)CC(=O)O3)[C@H]21` has a remaining compound of 95.2% (dog, Beagle, both sexes, whole blood; 5 µM, 15 min).
`CC(C)=CC[C@@H](O)C1=CC(=O)c2c(O)ccc(O)c2C1=O` has a measured concentration of 23.5 ± 0.94 ng/mL (plasma; 25 ng/mL, 4 h, room temperature, stability).
`N#Cc1ccc2c(c1)[C@H]1CCCN(C(=O)c3ccc4[nH]cnc4c3)[C@H]1C2` has a DHEA-S of 5.4 µmol/L (human females; 360 mg, end of trial).
`C=CC(=O)NC1CCN(c2ncc3ncnc(Nc4ccc(Oc5ccc6c(c5)ncn6C)c(C)c4)c3n2)CC1` — result for “participants with myalgia”: 6.3% (human, male; oral, 240 mg, treatment-emergent adverse event).
The plasma concentration of `CCn1c(C(=O)N(C2CC2)C2CC2)cc2c3c(ncn3C)c(Nc3cc(C)n(C)n3)nc21` is reported as 7020 ng/mL (cancer patients; oral, 200 mg twice daily, day 15, 337.0 h).
For `CSc1cc(C)nc(SC)c1NC(=O)CN1CCN(CCSc2nc3ccccc3[nH]2)CC1.Cl`, the concentration was 5.8 ng/g and 1.2 ng/g and 1.5 ng/g and 0.8 ng/g (mouse Crl:CD1 (ICR) female, cerebrum; intranasal, 50 µL of 3.24 mg/mL in 0.01 N HCl daily, 120 min, 7 days dosing).
For `COc1ccc2c(c1)CN(C(=O)CCN1CCC(Cc3ccccc3)CC1)CC[S@@+]2[O-]`, the heart rate was 71 ± 14 beats/min (telemetry; conscious dog; intravenous, 4 mg/kg, 2 h).
For `C[C@H](CCC(=O)NCCS(=O)(=O)O)[C@H]1CC[C@H]2[C@@H]3CC[C@@H]4C[C@H](OS(=O)(=O)O)CC[C@]4(C)[C@H]3CC[C@]12C`, “relative peak deviation” read 76.4 ± 11.1% (human, plasma; endogenous baseline diurnal; baseline: daily mean concentration).
`Cc1ccc([C@@H]2O[C@H](CO)[C@@H](O)[C@H](O)[C@H]2O)cc1Cc1ccc(-c2ccc(F)cc2)s1`: “urinary phosphate excretion change” 52.5 mg (item: inorganic phosphorus; Japanese type 2 diabetes patients; 25 mg, day 17, 24 h urine collection; baseline: baseline).
`COc1cccc(OC)c1NS(=O)(=O)c1ccc(N/C=C2\C(=O)Nc3ccc4ncsc4c32)cc1` gave a Kd of 3.6 µM (Cyclin-dependent kinase 2 (CDK2, Homo sapiens, UniProt P24941); binding, thermal shift).
The body weight of `Cc1nc(-c2ccc(OCC(C)C)c(C#N)c2)sc1C(=O)O` is reported as 32.5 g and 30.7 g and 31.6 g and 26.9 g and 28.3 g (KM mouse, chronic hyperuricaemia model; dose not given, day 6).
The half-life of `Cc1cccc(CNC(=O)c2cn(CCNC(=O)c3ccccc3Sc3c([N+](=O)[O-])ncn3C)c3cc4c(cc3c2=O)OC(F)(F)O4)n1` is reported as 33 ± 12 min (Sprague-Dawley rat, male, plasma; intravenous, 5 mg/kg of parent drug).
The heart rate of `CO[C@H]1C[C@@H]2CC[C@@H](C)[C@@](O)(O2)C(=O)C(=O)N2CCCC[C@H]2C(=O)O[C@H]([C@H](C)C[C@@H]2CC[C@@H](O)[C@H](OC)C2)CC(=O)[C@H](C)/C=C(\C)[C@@H](O)[C@@H](OC)C(=O)[C@H](C)C[C@H](C)/C=C/C=C/C=C/1C` is reported as 31 ± 4.8 beats/min (healthy adult horses; oral, 0.06 mg/kg, 1 h).
`CC(C)CCC[C@@H](C)[C@H]1CC[C@H]2[C@@H]3C(O)CC4=CC(=O)CC[C@]4(C)[C@H]3CC[C@]12C` (stereo partly drawn): “relative peak deviation” 88.4 ± 18.5% (human, plasma; endogenous baseline diurnal; baseline: daily mean concentration).
`COc1ncc(-c2nc3c(n2C(C)C)[C@H](c2ccc(Cl)cc2)N(c2cc(Cl)cn(C)c2=O)C3=O)c(OC)n1`: “geometric mean AUC(0-last)” 109 ng·h/mL (human patients, plasma; oral, 2 mg, cycle 1 day 14).
`C=CCN1CC(=O)N2[C@@H](Cc3ccc(O)cc3F)C(=O)N(Cc3cccc(N4CC(N5CCN(CC)CC5)C4)n3)C[C@@H]2N1C(=O)NCc1ccccc1` has a treatment-related nausea of 0% (advanced solid tumour patients; oral, 30 mg twice daily, grade ≥3, dose-escalation).
The plasma concentration of `CC(C)[C@H](NC(=O)[C@H](Cc1ccc(O)cc1)NC(=O)[C@H](Cc1ccc(O)cc1)NC(=O)[C@@H]1CCCN1C(=O)[C@H](CCC(=O)O)NC(=O)[C@H](CCC(=O)O)NC(=O)[C@H](Cc1c[nH]c2ccccc12)NC(=O)[C@@H]1CCCN1C(=O)[C@@H](NC(=O)[C@H](CCC(N)=O)NC(=O)c1ccc2c(c1)C(=O)OC21c2ccc(O)cc2Oc2cc(O)ccc21)C(C)C)C(=O)N[C@H](C(=O)N[C@@H](CCCCN)C(=O)N[C@@H](CCCCN)C(=O)N[C@@H](CO)C(=O)N[C@@H](CO)C(=O)NCC(=O)NCC(N)=O)C(C)C` is reported as 7060 ng/mL (human, plasma; intravenous infusion, 500 mg, 1 h).
`NCCOCC(=O)N1CCC[C@H](C(=O)NCc2nc(-c3ccc(C(F)(F)F)cc3)cs2)C1` gave a urinary excretion of 15% (Sprague-Dawley rat, male, urine; intravenous, 1 mg/kg, 24 h; baseline: dose).
`C[C@@H](NC(=O)N1C(=O)[C@H](Cc2ccnc(N)c2)[C@H]1C(=O)O)C1CCCCC1` — result for “elimination rate constant”: 0.000139 s⁻¹ (UPLC-MS/MS; healthy adult Chinese volunteers, plasma; continuous intravenous infusion, 2.25 mg/kg/h, day 6 of 5-day infusion, mean).
`CCn1cc(C(=O)N2CCOCC2)c(=O)c2cc(NC3Cc4ccccc4C3)cnc21` has a Cmax of 6430 ng/mL (human, fasted, plasma; oral, 1200 mg single dose, tablet, arithmetic mean).
Under “radioactivity recovered per interval”, `CN(C(=O)C(C)(C)c1cc(C(F)(F)F)cc(C(F)(F)F)c1)c1cnc(N2C[C@H]3COCCN3C[C@H]2CO)cc1-c1ccc(F)cc1[14CH3]` is recorded as 0.2 to 0.58% (healthy men, urine and feces; oral, 120 mg, from 288 h, per 24 h collection; baseline: dose).
With `C[C@@H]1CCO[C@H]2Cn3cc(C(=O)NCc4ccc(F)cc4F)c(=O)c(O)c3C(=O)N12` the plasma concentration was 731 ng/mL (population PK, post-hoc; children, 10 to <14 kg, plasma; oral, 15 mg dispersible tablet, 24 h, steady state, geometric mean).
Under “blood bilirubin increased dose reduction/interruption”, `CNC(=O)c1ccc(-c2cnc3ncc(Cc4ccc5ncccc5c4)n3n2)cc1F` is recorded as 0% (Japanese patients; oral, 400 mg, grade 3/4).
With `CCc1c(-c2ccccc2)c(-c2ccccc2)nn1-c1ccccc1-c1cccc(OCC(=O)O)c1` the concentration was 717 ng/g and 922 ng/g (Sprague-Dawley rat, stomach; oral, 10 mg/kg, 8 h).
`C[C@@]1(c2cc(NC(=O)c3ccc(C#N)cn3)ccc2F)C=CSC(N)=N1` gave a dose-normalised AUC(0-inf) of 2.59 ng·h/mL (elderly human, CSF; 150 mg, single dose).
`CC(C)(C(=O)N1CCOc2c(C#N)cncc2C1)C(F)F` — result for “subjects with TEAE”: 0% (item: vascular disorders; healthy humans, both sexes; oral, 20 mg single dose).
With `CS(=O)(=O)N(CC(=O)Nc1ccccc1C(=O)N1CCOCC1)c1ccc(Cl)cc1` the Kd was greater than 100 µM (Cyclin-dependent kinase 2, with cyclin A (CDK2, Homo sapiens, UniProt P24941)).
`Cn1cc(-c2ccc(-c3cncc(Cl)c3N3CCC4(CCNC4=O)CC3)cc2)cn1`: “log2 fold change” 1.85 (COLO 205; gene expression, microarray, item: MDM2 mRNA; concentration not given, 2 h; baseline: untreated cells).
`Oc1ccc(/C=C/c2cc(O)cc(O)c2)cc1` has a glucose of 180 mg/dL and 262 mg/dL and 212 mg/dL (rat, azoxymethane-injected, blood at sacrifice; 100 mg/kg).
For `O=C1CC[C@H](N2Cc3cc(N4CCN(CC5CCN(c6ccc([C@@H]7c8ccc(O)cc8CC[C@@H]7c7ccccc7)cc6)CC5)CC4)ccc3C2=O)C(=O)N1`, “unbound fraction in hepatocytes” read 0.12 (rapid equilibrium dialysis; human hepatocytes; 2.5 µM, 6 h).
Under “stability relative error”, `CCOc1c([C@H](C)n2nc(C)c3c(N)ncnc32)cc(Cl)c(F)c1[C@@H]1CNC(=O)C1` is recorded as 14.5% (rat plasma; 5 ng/mL, 4 h, 10 °C, autosampler; baseline: nominal concentration).
For `O=C1COCCN1c1ccc(CO[C@@H]2COc3nc([N+](=O)[O-])cn3C2)cc1`, the aqueous solubility was 28.4 µg/mL (≈ 75.9 µM) (aqueous buffer; pH 7.4).
The unbound AUClast of `CO[C@H]1C[C@@H]2CC[C@@H](C)[C@@](O)(O2)C(=O)C(=O)N2CCCC[C@H]2C(=O)O[C@H]([C@H](C)C[C@@H]2CC[C@@H](OC(=O)NCCOCCOCCOCCOCCOCCOCCOCCOCCC(=O)N3CCc4cc(Cn5nc(-c6ccc7oc(N)nc7c6)c6c(N)ncnc65)ccc4C3)[C@H](OC)C2)C[C@@H](O)[C@H](C)/C=C(\C)[C@@H](O)[C@@H](OC)C(=O)[C@H](C)C[C@H](C)/C=C/C=C/C=C/1C` is reported as 0.0387 µM·h (human patients, plasma; intravenous, 12 mg, cycle 1 day 15).

A few entries again:
`Cn1cc(-c2ccc(-c3cncc(Cl)c3N3CCC4(CCNC4=O)CC3)cc2)cn1`: “log2 fold change” 1.85 (COLO 205; gene expression, microarray, item: MDM2 mRNA; concentration not given, 2 h; baseline: untreated cells).
`Oc1ccc(/C=C/c2cc(O)cc(O)c2)cc1` has a glucose of 180 mg/dL and 262 mg/dL and 212 mg/dL (rat, azoxymethane-injected, blood at sacrifice; 100 mg/kg).
For `O=C1CC[C@H](N2Cc3cc(N4CCN(CC5CCN(c6ccc([C@@H]7c8ccc(O)cc8CC[C@@H]7c7ccccc7)cc6)CC5)CC4)ccc3C2=O)C(=O)N1`, “unbound fraction in hepatocytes” read 0.12 (rapid equilibrium dialysis; human hepatocytes; 2.5 µM, 6 h).
Under “stability relative error”, `CCOc1c([C@H](C)n2nc(C)c3c(N)ncnc32)cc(Cl)c(F)c1[C@@H]1CNC(=O)C1` is recorded as 14.5% (rat plasma; 5 ng/mL, 4 h, 10 °C, autosampler; baseline: nominal concentration).
For `O=C1COCCN1c1ccc(CO[C@@H]2COc3nc([N+](=O)[O-])cn3C2)cc1`, the aqueous solubility was 28.4 µg/mL (≈ 75.9 µM) (aqueous buffer; pH 7.4).
